Published values of several laboratories.
A part holds a random share of what one study measured.

Sample 1
Target: Centromere-binding protein 1, full length, N-terminal tag (CBF1, Saccharomyces cerevisiae, UniProt P17106, residues 1-351)
Sequence of UniProt P17106 (whole entry, looked up): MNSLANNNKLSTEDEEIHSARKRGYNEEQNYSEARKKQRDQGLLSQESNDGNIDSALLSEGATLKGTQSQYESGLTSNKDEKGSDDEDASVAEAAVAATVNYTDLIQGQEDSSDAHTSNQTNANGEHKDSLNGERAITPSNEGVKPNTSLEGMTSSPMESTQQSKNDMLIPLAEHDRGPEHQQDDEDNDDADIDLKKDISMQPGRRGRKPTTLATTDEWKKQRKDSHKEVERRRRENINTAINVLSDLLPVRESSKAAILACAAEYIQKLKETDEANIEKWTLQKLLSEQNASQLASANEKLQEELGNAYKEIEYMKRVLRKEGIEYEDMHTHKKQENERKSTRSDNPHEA
Method: protein-binding microarray
Molecule type: double-stranded DNA, one strand shown
Medium: in vitro
Tested at: 0.8 µM
Notes: whole 60-bp probe, no competitor
Direction: higher = stronger binding
Sequence | fluorescence intensity
CTAGCAGGCACAGGTCACGAACTGCGGTGCGGATTCGTCTTGATTCGCTTGACGCTGCTG | 788 a.u.
GAAAAGCGTGTGTAACATCAAATAAGAGACAATTAGGTCTTGATTCGCTTGACGCTGCTG | 538 a.u.
GAAATTGTCAGTATTGTTGTGACCATTCTTGATTAGGTCTTGATTCGCTTGACGCTGCTG | 538 a.u.

Sample 2
Target: Histone acetyltransferase KAT6A, winged helix 1, GST fusion (KAT6A, Homo sapiens, UniProt Q92794, residues 1-85)
Method: protein binding microarray
Molecule type: double-stranded DNA, one strand shown
Medium: in vitro
Tested at: not given
Notes: 8-mer, flanks averaged, mean of 2 arrays, mostly near background
Reference: not given
Direction: higher = stronger binding
Construct (chain): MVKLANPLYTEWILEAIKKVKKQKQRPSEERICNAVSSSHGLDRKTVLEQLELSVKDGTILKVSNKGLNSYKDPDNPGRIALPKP
Sequence | E-score
CGATTCAG | -0.0736
AACCTTCT | -0.123
TTCAGAAA | -0.173
GGCATCAC | 0.155
GTCTCGTA | -0.128
CTATGAAA | 0.0159
AAAAGAGT | -0.107

Sample 3
Target: Ras GTPase-activating protein-binding protein 1, full length (G3BP1, Homo sapiens, UniProt Q13283)
Sequence of UniProt Q13283 (whole entry, looked up): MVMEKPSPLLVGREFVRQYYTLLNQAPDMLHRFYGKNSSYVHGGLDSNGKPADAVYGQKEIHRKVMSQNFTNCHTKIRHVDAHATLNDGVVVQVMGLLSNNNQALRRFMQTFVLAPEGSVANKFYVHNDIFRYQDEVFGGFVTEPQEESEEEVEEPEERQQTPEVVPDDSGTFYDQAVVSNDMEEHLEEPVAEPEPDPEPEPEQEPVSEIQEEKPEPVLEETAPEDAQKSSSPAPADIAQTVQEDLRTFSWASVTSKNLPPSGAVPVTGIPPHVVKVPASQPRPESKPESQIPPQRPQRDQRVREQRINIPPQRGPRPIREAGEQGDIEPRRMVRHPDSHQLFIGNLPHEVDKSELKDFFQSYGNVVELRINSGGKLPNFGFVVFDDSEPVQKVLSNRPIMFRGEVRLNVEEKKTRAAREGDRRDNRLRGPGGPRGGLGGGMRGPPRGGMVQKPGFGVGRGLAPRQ
Method: RNA Bind-n-Seq
Molecule type: RNA
Medium: in vitro
Tested at: 200 nM
Notes: whole 134-nt RNA, ends assumed
With: 150 mM KCl
Reference: input library
Direction: higher = stronger binding
Sequence | log2 enrichment
GGGAGUUCUACAGUCCGACGAUCCCUGUGCUACACAUCGUAUGUACCGAAUCGGGGAAAAAAGGGAAAAAAGGGGAAAAAAGGGAAAGUAUUAUGUUACGCCGUUCGGAUCUGUGGAAUUCUCGGGUGUCAAGG | -0.229
GGGAGUUCUACAGUCCGACGAUCGCAGGAAGUAAAAACAAAUGGAAAUGCUUCGGAUAGUGGCAGGGGUGGGGGUUGCUAAGGAAAGGGUGGGAUGGGAGUGGGGAAAGAGUUUGGAAUUCUCGGGUGUCAAGG | 1.41
GGGAGUUCUACAGUCCGACGAUCUCCUGUGCUACACAUCGUAUGUACCGAAUCGGGGAAAAAAAGGGGAAAAAGGGGAGGGGAAAGUAUUAUGUUACGCCGUUCGGAUCUGCAUGGAAUUCUCGGGUGUCAAGG | 0.809

Single results of other studies
Molecule | target | assay | system | setting | how to read | measurement | value
PhoQ, residues 284 288 289 292 302 303 SACGEM | PhoP, residues 12 14 15 18 19 NMSFL (Escherichia coli, UniProt P23836) | Sort-seq, item: YFP reporter | E. coli | PhoQ-PhoP variant library, with: 10 µM Mg2+ | reference: high Mg2+ state, higher = stronger signaling | fold induction | 15.6

Repeated from above (sample 2):
Sequence | E-score
CGATTCAG | -0.0736
AACCTTCT | -0.123
